Measured values of several laboratories.
A part holds a random share of what one study measured.

Series 1 — technique: competition protein-binding microarray; form: double-stranded DNA, one strand shown; medium: in vitro; tested at: 2 µM; added: Cbf1 competitor, 0.05 µM; reading: higher = stronger binding
Target: Phosphate system positive regulatory protein PHO4, full length, GST-tagged (PHO4, Saccharomyces cerevisiae, UniProt P07270, residues 1-312)
Sequence of UniProt P07270 (whole entry, looked up): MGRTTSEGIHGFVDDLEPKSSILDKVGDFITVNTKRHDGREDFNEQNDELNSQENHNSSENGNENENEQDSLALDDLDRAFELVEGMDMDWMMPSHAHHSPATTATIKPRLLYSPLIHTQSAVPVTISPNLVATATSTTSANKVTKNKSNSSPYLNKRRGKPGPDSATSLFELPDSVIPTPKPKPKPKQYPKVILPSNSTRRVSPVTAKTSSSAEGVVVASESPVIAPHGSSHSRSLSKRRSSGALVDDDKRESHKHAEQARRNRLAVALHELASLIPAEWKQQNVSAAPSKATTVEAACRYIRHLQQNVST
Setting: whole 60-bp probe, lowest competitor level
`CTAACGAAGGTTTGAACTGTGGGTGACAAGCCAAGTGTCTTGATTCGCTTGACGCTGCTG` gave a fluorescence intensity of 3380 a.u.
The fluorescence intensity of `GGCGTCGTACAAGAGAACGTGGGTACTTTTTAGGCTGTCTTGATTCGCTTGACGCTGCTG` is reported as 13700 a.u.
`CTAAACAGTCCGCCCAACGTGGTCGAGTTTGCTTTAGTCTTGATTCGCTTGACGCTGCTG` gave a fluorescence intensity of 13300 a.u.
With `AAAGCGGTAATTTGGTCTGTGGGTGCAGATATCTATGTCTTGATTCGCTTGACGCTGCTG` the fluorescence intensity was 4480 a.u.
For `CGGGGTTAAGTTTTTCACGTGTCCTGCTTGCAGCAGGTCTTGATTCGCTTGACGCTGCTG`, the fluorescence intensity was 12000 a.u.
`CTTCTGTAAATTTGTCACTTTACTTGACGCGCCCCGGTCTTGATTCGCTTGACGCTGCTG` gave a fluorescence intensity of 3630 a.u.
For `AAATTACTAAGTTTTCACGTGCGATACCCCGTATGAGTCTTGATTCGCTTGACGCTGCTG`, the fluorescence intensity was 14600 a.u.
For `AAAAAGATGCACCATCACGTGCTAAAAATCTAACATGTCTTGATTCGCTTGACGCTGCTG`, the fluorescence intensity was 14000 a.u.

Series 2 — technique: RNA Bind-n-Seq; form: RNA; medium: in vitro; tested at: 365 nM; relative to: no-protein control; reading: higher = stronger binding
Target: RNA binding protein fox-1 homolog 2, RRM domain, GST-SBP tag (RBFOX2, Homo sapiens, UniProt O43251-10, residues 100-194)
Setting: natural RNA segment, single round, ends assumed
Construct (chain): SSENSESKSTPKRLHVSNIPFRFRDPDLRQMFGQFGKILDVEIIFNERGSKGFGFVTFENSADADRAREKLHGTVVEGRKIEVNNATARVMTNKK
`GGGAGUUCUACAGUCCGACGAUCACUCAUUUCCACAGUUAGAUACGGAUGUGUUGAUGUAUUUCGUCUAGUUUAUUUGGCUCAGUCCACAGCUGCGUUGGAGUGGUGACUUUGGUAGCCCUUGAGCUCUAAUUUGGAAUUCUCGGGUGCCAA` — result for “RBNS enrichment (R)”: 0.461.
`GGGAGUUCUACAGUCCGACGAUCUUCUGCCAUACUUUUCUCCAUUGGCCCAGGUAGGCUAAUUGGUAGUUGUUCAUUUCAGCCUCUGGAUGGCUGGCUGCCUUAAACACAAUCAAUUUCAAAGCUCCAUUUCAUGGAAUUCUCGGGUGCCAA` — result for “RBNS enrichment (R)”: 0.467.
`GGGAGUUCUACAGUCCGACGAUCACCAUUUUGGAAACUGUCAUGUAACUUAUUUUCUCCUUUAACCUCGUCAUCGUUUUCUGUAGGGGAAAAAAAAGAGAAAAAGAGAAAAAAAAAUGAGAUUUUACAAAUGAUGGAAUUCUCGGGUGCCAA` — result for “RBNS enrichment (R)”: 0.441.
Under “RBNS enrichment (R)”, `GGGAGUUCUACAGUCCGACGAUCUGGCUGCCCUGUGCAGGCUGUCAUCAGAGUUCUCCAUGUGGGUCAAUACCUGCACCCCCAGGAAGAGGGCAUUCCCCAGCAGGCCUCUGCAGAUCCUGCGGGUGGGAGGAUGGAAUUCUCGGGUGCCAA` is recorded as 0.328.
Under “RBNS enrichment (R)”, `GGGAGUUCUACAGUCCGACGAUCGUCUCGGGACUUGGGUCCCGGAGUGCCCGUGAAGCGUGUUUUUGCUCCUGAGGUGCAUUUUCUCAUCAUCCUUGCUUUACCACAAUGAGCAAUGAGGUCGGGUUUUAUAUUGGAAUUCUCGGGUGCCAA` is recorded as 0.306.
`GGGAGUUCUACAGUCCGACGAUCGUCUGGACUCAGCCACAAACUCUAAUAAGACCUGUACAUCUGAGAACCUUUCCCGUUACUGCGUUUUCACCACCUGUCUUCCCCAUGCUUUAUUUAUCUGUAUGAACACAUGGAAUUCUCGGGUGCCAA`: “RBNS enrichment (R)” 0.497.
For `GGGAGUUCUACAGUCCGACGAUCGGCUCUGGGCUGGGACAUGGCUUAGAGUGACUUUCUGUCUUAGAAAUCAUGGUAUAUCCUCAGGAGAAUGUUCCGUGUCUCGCAACAACUAAUUAUAUUGCAAAUUAUUAUGGAAUUCUCGGGUGCCAA`, “RBNS enrichment (R)” read 0.568.

Series 3 — technique: RNA Bind-n-Seq; form: RNA; medium: in vitro; tested at: not given; relative to: input RNA pool; reading: higher = stronger binding
Target: RING finger protein unkempt homolog, zinc fingers 1-6, GST-SBP tag (UNK, Homo sapiens, UniProt Q9C0B0, residues 30-357)
Sequence of UniProt Q9C0B0 (30-357, looked up): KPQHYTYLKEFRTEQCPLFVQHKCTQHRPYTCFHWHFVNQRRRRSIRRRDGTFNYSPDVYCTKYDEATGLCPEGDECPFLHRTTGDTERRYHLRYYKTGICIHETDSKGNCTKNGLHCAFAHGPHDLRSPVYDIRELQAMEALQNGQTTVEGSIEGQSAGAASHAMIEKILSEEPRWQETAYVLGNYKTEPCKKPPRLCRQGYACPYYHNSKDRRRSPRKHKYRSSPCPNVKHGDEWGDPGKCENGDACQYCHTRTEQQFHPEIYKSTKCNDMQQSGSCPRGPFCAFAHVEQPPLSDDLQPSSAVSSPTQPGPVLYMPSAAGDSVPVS
Setting: RNA with constant flanks, human-mouse chimeric sites, ends assumed
`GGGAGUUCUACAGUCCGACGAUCAAAGAACCUCUCUCUGAAGAAGAGGAAGAAGACAAUGAUGAUGUUGAACCUAUUACUGAAUUUCGAUUUGUGCCCAGUGAUAAGUCAGCAUUGGAGGCGAUGUUCACAGCAAUGUGUGAGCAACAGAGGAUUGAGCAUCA` gave a bound/input enrichment of 0.303 ratio.
With `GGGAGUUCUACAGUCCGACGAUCUCGGAUGAGGUGCUGGGUCACUUUUCAUAUCCAGAUCCUUCACAGUGGACAGAUGAAGAACUGGGAAUCCCUCCUGAUGAUGAAGACUGACACUGUAAACUCUCUGGACGAGUAGGAGCACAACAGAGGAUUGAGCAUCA` the bound/input enrichment was 0.538 ratio.
`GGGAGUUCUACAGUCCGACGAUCUAUAUCACCAAUGUUCUACAAAAUCCUGACUUGGCUCUGAGAAUGGCUGUGCGGAACAACUUAGCUGGUGCUGAAGAACUCUUUGCCCGGAAAUUUAAUGCUCUCUUUGCCCAGGGAAACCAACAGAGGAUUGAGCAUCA` has a bound/input enrichment of 0.299 ratio.
With `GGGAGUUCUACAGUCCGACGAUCAAAGUGGACUAUGGUGAAUACAUGGAUAAAAACAAUGUGAGGCGGCAAGCAACAACAAUCAUAGCUGAUAACAUUAUAUUUCUGAGUGACCAGACAAAAGAAAAGGCAUAGAACGGAUGACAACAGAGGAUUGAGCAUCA` the bound/input enrichment was 2.27 ratio.
`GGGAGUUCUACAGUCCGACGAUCUUGCUACUGACUCCCUGGGUUAAAUUCCUGUGGGAGUCAUACAGGCAGUGUUUGGACCUUCUUCGAAACAAUUCUAGAGUAGAGCGCCUUUACCAUGAUAUCGCCCAACAAGCUUUCAAACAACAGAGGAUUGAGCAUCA` gave a bound/input enrichment of 0.137 ratio.
`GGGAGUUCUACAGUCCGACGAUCAUUGUUGAAGCUAACCCACUUUUAGAAGCAUUUGGAAAUGCAAAGACUGUUCGCAACAAUAAUAGCAGUCGAUUUGGAAAAUUUGUAGAAAUACAUUUCAAUGAAAAGAGUUCGGUUGUUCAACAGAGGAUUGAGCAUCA` gave a bound/input enrichment of 0.371 ratio.

Mixed results
For `PhoQ, residues 284 288 289 292 302 303 ASASEQ`, the fold induction was 22.7 (PhoP, residues 12 14 15 18 19 LWHVM (Escherichia coli, UniProt P23836); Sort-seq, refers to: YFP reporter; E. coli; PhoQ-PhoP variant library, added: 10 µM Mg2+; relative to: high Mg2+ state, higher = stronger signaling).

For quick reference, copied from above (series 1):
`CTAAACAGTCCGCCCAACGTGGTCGAGTTTGCTTTAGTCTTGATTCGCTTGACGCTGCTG` gave a fluorescence intensity of 13300 a.u.
With `AAAGCGGTAATTTGGTCTGTGGGTGCAGATATCTATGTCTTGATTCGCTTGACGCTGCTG` the fluorescence intensity was 4480 a.u.
For `CGGGGTTAAGTTTTTCACGTGTCCTGCTTGCAGCAGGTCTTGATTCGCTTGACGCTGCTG`, the fluorescence intensity was 12000 a.u.
